Measurements from different studies.
Every numbered part comes from another study and shows a few of its results, in no order. Values joined by “and” are separate records of one study, mostly repeats; a detail may differ.
Chain of UniProt P00519 (whole entry, unmodified, looked up): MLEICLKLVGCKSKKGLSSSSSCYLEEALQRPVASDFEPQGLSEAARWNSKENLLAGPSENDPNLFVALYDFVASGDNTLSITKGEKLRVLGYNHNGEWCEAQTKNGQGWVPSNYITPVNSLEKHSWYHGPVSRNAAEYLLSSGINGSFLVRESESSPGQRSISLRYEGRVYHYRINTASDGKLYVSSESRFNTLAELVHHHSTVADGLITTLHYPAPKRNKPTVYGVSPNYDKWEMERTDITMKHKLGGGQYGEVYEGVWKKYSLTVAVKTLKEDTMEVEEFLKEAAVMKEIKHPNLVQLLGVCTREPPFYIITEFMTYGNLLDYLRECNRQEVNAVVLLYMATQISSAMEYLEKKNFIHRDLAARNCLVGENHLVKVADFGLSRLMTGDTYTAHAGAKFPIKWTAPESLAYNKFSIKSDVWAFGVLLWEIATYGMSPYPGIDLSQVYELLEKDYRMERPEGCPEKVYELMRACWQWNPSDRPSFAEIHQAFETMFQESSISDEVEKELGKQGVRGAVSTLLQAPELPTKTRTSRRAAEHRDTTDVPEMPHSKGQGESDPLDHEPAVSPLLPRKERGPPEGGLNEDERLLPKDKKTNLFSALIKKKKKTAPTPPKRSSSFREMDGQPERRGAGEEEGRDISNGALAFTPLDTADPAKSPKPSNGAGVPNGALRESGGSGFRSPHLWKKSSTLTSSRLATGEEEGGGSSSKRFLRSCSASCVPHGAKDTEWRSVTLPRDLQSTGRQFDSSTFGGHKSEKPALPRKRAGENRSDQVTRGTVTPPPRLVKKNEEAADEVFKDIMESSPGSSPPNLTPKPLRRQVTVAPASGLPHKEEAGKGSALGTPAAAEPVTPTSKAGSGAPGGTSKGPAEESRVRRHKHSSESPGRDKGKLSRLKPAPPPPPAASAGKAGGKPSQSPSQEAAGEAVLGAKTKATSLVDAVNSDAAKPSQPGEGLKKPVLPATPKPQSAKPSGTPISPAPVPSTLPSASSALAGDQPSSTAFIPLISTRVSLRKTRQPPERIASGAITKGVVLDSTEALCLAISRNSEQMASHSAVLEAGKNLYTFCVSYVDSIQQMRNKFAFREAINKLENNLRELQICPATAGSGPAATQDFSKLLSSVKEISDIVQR
Chain of UniProt Q8TD19 (whole entry, looked up): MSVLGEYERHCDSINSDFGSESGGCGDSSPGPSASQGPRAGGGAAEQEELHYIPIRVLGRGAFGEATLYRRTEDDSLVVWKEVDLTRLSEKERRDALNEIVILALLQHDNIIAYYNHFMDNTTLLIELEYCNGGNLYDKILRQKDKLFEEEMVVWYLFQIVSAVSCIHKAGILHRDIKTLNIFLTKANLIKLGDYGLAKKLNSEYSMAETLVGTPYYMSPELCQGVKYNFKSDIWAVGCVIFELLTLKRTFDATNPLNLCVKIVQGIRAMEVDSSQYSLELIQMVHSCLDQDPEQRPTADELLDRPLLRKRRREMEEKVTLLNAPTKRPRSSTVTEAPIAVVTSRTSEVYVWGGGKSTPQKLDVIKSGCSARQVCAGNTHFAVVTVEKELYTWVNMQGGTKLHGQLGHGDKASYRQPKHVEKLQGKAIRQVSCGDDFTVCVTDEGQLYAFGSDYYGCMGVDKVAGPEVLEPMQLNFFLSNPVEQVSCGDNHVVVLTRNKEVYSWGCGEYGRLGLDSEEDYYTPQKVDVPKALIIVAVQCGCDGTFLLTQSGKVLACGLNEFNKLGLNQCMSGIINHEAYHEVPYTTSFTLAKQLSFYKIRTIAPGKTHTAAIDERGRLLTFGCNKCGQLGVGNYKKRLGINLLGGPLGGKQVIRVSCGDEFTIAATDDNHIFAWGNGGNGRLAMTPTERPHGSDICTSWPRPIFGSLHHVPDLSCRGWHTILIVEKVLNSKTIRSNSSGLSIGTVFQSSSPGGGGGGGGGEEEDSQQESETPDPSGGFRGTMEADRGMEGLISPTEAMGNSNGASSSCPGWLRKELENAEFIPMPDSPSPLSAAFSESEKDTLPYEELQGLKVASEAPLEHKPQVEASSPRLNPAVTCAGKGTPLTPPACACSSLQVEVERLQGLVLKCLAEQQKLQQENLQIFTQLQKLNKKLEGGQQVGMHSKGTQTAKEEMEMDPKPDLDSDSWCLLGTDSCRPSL
Chain of UniProt O14965 (whole entry, looked up): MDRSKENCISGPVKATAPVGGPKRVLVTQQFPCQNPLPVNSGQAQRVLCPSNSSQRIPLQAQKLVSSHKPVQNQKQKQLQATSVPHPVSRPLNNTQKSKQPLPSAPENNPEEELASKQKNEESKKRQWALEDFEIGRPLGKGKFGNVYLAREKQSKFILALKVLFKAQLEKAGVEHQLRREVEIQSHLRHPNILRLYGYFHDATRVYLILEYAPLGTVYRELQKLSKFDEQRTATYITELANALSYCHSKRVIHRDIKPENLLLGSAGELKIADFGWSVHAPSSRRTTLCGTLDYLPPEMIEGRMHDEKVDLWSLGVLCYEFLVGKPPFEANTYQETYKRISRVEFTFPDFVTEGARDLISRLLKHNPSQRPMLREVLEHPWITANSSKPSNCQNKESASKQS

Series 1
Structure (SMILES): CC(C)CC(=O)N1CCc2nc(-c3ccc(Br)cc3)nc(N(C)Cc3ccccc3)c2C1
Concentration: 0.1 µM
target	assay	remaining binding [%]
MYLK (Homo sapiens, UniProt Q15746)	cell-free assay, competition with immobilised ligand	86
MKNK1 (Homo sapiens, UniProt Q9BUB5)	cell-free assay, competition with immobilised ligand	69
MAPK1 (Homo sapiens, UniProt P28482)	cell-free assay, competition with immobilised ligand	93
Tyrosine-protein kinase ABL1, phosphorylated (ABL1, Homo sapiens, UniProt P00519, E255K)	binding, competition with immobilised ligand	100
STK38 (Homo sapiens, UniProt Q15208)	cell-free assay, competition with immobilised ligand	100
MAP2K3 (Homo sapiens, UniProt P46734)	cell-free assay, competition with immobilised ligand	100
SIK1 (Homo sapiens, UniProt P57059)	competition binding	91
Tyrosine-protein kinase ABL1, phosphorylated (ABL1, Homo sapiens, UniProt P00519, F317I)	binding	100
BMX (Homo sapiens, UniProt P51813)	cell-free assay, competition with immobilised ligand	100
SRPK3 (Homo sapiens, UniProt Q9UPE1)	cell-free assay, competition with immobilised ligand	79
Ribosomal protein S6 kinase alpha-5, C-terminal kinase domain (RPS6KA5, Homo sapiens, UniProt O75582)	cell-free assay, competition with immobilised ligand	100
AKT3 (Homo sapiens, UniProt Q9Y243)	cell-free assay, competition with immobilised ligand	64

Series 2
Target: DNA polymerase theta, helicase domain (POLQ, Homo sapiens, UniProt O75417)
Chain of UniProt O75417 (whole entry, looked up): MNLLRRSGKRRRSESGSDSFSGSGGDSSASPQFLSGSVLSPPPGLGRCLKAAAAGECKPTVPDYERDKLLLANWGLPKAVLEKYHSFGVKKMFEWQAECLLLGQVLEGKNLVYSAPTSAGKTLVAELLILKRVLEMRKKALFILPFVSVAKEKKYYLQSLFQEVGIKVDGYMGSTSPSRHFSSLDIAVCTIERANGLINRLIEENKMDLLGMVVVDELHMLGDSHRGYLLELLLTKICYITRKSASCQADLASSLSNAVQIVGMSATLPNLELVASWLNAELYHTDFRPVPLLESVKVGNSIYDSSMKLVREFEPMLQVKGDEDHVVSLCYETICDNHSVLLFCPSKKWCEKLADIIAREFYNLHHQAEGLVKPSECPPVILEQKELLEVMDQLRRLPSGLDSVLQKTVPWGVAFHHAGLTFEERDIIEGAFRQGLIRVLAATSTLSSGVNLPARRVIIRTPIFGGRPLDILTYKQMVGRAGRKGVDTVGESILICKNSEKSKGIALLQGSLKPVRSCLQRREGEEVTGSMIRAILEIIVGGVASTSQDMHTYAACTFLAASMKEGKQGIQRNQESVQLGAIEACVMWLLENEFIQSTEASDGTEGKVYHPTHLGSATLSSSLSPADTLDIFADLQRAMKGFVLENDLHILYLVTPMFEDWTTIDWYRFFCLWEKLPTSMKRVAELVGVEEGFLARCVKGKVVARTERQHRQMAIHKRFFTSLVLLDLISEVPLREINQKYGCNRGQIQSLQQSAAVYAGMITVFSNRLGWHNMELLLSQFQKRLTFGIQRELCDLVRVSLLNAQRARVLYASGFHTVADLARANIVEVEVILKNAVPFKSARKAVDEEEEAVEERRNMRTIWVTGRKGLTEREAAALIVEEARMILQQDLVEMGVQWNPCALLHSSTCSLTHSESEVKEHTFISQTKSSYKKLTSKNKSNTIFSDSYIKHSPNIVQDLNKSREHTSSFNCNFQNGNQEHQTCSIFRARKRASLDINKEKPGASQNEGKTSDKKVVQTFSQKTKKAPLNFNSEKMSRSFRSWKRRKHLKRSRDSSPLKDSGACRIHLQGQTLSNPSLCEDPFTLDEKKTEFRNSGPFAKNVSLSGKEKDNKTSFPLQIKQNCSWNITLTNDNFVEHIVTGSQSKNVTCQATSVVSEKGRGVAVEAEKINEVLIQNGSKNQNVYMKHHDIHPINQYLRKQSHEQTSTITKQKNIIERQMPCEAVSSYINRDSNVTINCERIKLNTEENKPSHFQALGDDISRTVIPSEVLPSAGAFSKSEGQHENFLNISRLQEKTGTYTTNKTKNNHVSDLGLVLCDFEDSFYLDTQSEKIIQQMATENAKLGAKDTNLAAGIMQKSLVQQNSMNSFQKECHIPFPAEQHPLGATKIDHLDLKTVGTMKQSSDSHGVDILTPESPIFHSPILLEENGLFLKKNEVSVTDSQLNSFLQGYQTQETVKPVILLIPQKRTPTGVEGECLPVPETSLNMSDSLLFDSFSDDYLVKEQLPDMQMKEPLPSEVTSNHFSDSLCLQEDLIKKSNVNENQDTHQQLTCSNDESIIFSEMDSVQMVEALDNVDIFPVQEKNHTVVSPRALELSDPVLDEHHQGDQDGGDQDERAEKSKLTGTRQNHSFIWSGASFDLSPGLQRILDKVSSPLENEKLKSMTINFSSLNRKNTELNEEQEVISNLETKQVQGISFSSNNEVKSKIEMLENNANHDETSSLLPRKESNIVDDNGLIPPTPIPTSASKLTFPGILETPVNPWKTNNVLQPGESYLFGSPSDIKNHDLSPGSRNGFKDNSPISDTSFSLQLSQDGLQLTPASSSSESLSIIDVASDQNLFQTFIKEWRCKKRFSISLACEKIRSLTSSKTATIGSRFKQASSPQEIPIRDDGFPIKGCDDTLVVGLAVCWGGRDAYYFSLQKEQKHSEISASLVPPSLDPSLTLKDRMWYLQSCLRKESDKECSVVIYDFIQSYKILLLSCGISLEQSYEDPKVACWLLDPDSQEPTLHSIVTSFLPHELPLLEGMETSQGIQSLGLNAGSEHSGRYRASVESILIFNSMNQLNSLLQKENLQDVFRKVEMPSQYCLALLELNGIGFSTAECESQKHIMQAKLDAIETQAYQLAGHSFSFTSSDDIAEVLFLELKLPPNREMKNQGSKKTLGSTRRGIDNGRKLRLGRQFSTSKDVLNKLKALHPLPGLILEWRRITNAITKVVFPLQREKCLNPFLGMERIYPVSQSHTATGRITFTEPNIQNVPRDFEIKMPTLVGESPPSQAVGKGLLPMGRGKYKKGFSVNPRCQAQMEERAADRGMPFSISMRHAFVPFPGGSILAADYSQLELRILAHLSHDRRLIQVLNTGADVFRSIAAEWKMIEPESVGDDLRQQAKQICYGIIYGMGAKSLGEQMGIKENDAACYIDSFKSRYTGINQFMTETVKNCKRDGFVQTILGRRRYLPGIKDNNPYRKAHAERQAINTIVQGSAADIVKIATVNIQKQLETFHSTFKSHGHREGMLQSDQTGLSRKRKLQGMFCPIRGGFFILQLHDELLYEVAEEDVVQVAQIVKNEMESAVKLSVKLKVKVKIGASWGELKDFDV
Effect on: ATPase activity
Concentration: concentration not given
Notes: average
With: with ssDNA
SMILES	remaining activity [%]
COc1cc2c(cc1Cc1cccc(Cl)c1F)c(=O)c(C(=O)O)cn2[C@H](CO)C(C)C	81.4
CCOc1ccc2nc3cc(N)ccc3c(N)c2c1	33.2
CCCCCCCCCCCCc1ccc(S(=O)(=O)Nc2nncs2)cc1	103
O=C(Nc1ccccc1C(=O)O)c1cccc(S(=O)(=O)N2CCCC2)c1	56.3
CCCCCCCCCCC/C=C\C(C)(C)/C=C\CCCC(=O)O	97.8
CC1=Nc2cc(C(=O)NCCc3ccc(Cl)cc3)ccc2Sc2ccc(C)cc21	64.9
COc1cccc2c1C(=O)c1c(O)c3c(c(O)c1C2=O)C[C@@](O)(C(=O)CO)C[C@@H]3O[C@H]1C[C@H](N)[C@H](O)[C@H](C)O1	48.1
CCOc1ccccc1NC(=O)CSc1ncc(S(=O)(=O)c2ccc(C(C)(C)C)cc2)c(=O)[nH]1	69.7

Series 3
Structure (SMILES): CCC(=O)N1CCN(c2nc(OC[C@@H]3CCCN3C)nc3c2CCN(c2cccc4cccc(Cl)c24)C3)C[C@@H]1CC#N
Effect on: binding
Action: competitor
Technique: NanoBRET
Cell line: HEK293
KRAS Q61H: GTPase KRas (KRAS, Homo sapiens, UniProt P01116, Q61H)
KRAS Q61R: GTPase KRas (KRAS, Homo sapiens, UniProt P01116, Q61R)
KRAS G13D: GTPase KRas (KRAS, Homo sapiens, UniProt P01116, G13D)
target	conditions	normalized BRET
GTPase KRas (KRAS, Homo sapiens, UniProt P01116, Q61L)	15.2 nM	94% and 107% and 94.9%
KRAS Q61H	11.1 µM	15.7% and 14% and 19.6%
KRAS Q61R	412 nM	102% and 105% and 93.8%
KRAS G13D	11.1 µM	15.5% and 10.5% and 13%
KRAS Q61R	45.7 nM	102% and 107% and 95.5%
KRAS Q61R	5.08 nM	105% and 109% and 99.5%
GTPase KRas (KRAS, Homo sapiens, UniProt P01116, G12D)	412 nM	94.4% and 96.7% and 92.3%
KRAS G13D	3.7 µM	28.3% and 23.3% and 24.8%
KRAS Q61H	3.7 µM	30.3% and 26.7%
KRAS Q61H	1.24 µM	52% and 62.6% and 48.5%

Series 4
SMILES: COc1cc2ncnc(N3CCN(C(=O)Nc4ccc(Oc5ccccc5)cc4)CC3)c2cc1OC
Effect on: enzyme activity
Action: inhibitor
Concentration: 0.5 µM
Reference: control
target	remaining activity
BRSK1 (Homo sapiens, UniProt Q8TDC3)	86.4%
MAPK10 (Homo sapiens, UniProt P53779)	98.2%
DMPK (Homo sapiens, UniProt Q09013)	95.6%
NEK9 (Homo sapiens, UniProt Q8TD19)	103%
PRKD1 (Homo sapiens, UniProt Q15139)	102%
CAMK1D (Homo sapiens, UniProt Q8IU85)	104%
EGFR (Homo sapiens, UniProt P00533)	79.1%
GRK5 (Homo sapiens, UniProt P34947)	82.2%
CSNK2A2 (Homo sapiens, UniProt P19784)	61.9%
ROCK2 (Homo sapiens, UniProt O75116)	125%
DYRK4 (Homo sapiens, UniProt Q9NR20)	79.8%
MAP3K2 (Homo sapiens, UniProt Q9Y2U5)	81.2%
CDK7 (Homo sapiens, UniProt P50613)	103%
CAMK1G (Homo sapiens, UniProt Q96NX5)	100%
SLK (Homo sapiens, UniProt Q9H2G2)	97.9%
NTRK3 (Homo sapiens, UniProt Q16288)	89%
RET (Homo sapiens, UniProt P07949)	104%
HIPK3 (Homo sapiens, UniProt Q9H422)	87.4%
PTK2B (Homo sapiens, UniProt Q14289)	91.2%
MAP3K8 (Homo sapiens, UniProt P41279)	95.1%
Cyclin-dependent kinase 2, with cyclin A (CDK2, Homo sapiens, UniProt P24941)	93.1%
ROS1 (Homo sapiens, UniProt P08922)	89.7%
PKN2 (Homo sapiens, UniProt Q16513)	99.1%
Aurora kinase A (AURKA, Homo sapiens, UniProt O14965)	79.6%

Excerpt of the above (series 4):
target	remaining activity
ROCK2 (Homo sapiens, UniProt O75116)	125%
DYRK4 (Homo sapiens, UniProt Q9NR20)	79.8%
MAP3K2 (Homo sapiens, UniProt Q9Y2U5)	81.2%
CDK7 (Homo sapiens, UniProt P50613)	103%
CAMK1G (Homo sapiens, UniProt Q96NX5)	100%
SLK (Homo sapiens, UniProt Q9H2G2)	97.9%
NTRK3 (Homo sapiens, UniProt Q16288)	89%
RET (Homo sapiens, UniProt P07949)	104%
HIPK3 (Homo sapiens, UniProt Q9H422)	87.4%
